Results collected from several papers.
Protocols differ between the studies behind these lines. ± gives the spread as reported.
Chain of UniProt Q9NR28 (whole entry, looked up): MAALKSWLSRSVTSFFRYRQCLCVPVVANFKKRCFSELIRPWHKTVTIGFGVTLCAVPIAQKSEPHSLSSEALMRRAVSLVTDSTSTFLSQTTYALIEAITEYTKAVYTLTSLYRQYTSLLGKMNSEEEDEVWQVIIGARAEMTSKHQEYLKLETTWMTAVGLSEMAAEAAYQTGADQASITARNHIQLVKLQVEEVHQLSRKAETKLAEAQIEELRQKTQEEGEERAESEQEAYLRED
Chain of UniProt Q15046 (whole entry, looked up): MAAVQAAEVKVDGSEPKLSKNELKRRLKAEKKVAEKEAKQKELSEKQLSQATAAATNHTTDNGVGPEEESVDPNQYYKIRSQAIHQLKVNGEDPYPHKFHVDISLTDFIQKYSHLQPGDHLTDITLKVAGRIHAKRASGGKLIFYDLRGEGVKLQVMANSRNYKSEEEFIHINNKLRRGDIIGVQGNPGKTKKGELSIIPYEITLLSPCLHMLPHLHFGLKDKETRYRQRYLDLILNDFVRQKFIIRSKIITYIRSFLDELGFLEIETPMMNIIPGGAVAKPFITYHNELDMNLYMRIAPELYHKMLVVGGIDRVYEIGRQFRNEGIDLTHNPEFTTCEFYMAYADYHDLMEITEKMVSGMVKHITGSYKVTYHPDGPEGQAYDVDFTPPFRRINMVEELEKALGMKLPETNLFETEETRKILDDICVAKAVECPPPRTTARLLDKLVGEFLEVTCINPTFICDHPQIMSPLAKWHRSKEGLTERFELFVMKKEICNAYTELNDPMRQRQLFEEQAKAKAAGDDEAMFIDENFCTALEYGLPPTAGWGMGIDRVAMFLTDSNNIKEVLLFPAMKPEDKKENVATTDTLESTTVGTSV
Chain of UniProt A0A0D1DWZ5 (whole entry, looked up): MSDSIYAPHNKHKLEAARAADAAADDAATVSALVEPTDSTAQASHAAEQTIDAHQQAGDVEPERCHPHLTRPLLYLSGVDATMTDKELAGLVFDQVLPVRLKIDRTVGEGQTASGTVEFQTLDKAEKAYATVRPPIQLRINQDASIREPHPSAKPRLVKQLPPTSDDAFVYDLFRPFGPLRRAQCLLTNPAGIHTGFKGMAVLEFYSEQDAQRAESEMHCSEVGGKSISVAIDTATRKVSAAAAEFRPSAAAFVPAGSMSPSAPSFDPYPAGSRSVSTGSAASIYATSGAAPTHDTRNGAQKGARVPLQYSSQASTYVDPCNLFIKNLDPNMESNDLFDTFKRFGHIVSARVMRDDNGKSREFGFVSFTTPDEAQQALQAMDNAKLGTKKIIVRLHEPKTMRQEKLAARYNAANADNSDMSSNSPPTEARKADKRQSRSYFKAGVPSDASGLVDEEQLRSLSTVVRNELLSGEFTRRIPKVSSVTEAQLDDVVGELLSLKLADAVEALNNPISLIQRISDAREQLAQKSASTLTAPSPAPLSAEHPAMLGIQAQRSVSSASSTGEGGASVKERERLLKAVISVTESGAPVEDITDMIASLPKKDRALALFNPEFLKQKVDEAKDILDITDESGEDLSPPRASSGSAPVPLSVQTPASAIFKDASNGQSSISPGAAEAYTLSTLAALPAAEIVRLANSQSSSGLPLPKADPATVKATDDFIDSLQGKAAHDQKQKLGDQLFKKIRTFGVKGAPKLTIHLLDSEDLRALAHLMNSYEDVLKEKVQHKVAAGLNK
Chain of UniProt P49841 (whole entry, looked up): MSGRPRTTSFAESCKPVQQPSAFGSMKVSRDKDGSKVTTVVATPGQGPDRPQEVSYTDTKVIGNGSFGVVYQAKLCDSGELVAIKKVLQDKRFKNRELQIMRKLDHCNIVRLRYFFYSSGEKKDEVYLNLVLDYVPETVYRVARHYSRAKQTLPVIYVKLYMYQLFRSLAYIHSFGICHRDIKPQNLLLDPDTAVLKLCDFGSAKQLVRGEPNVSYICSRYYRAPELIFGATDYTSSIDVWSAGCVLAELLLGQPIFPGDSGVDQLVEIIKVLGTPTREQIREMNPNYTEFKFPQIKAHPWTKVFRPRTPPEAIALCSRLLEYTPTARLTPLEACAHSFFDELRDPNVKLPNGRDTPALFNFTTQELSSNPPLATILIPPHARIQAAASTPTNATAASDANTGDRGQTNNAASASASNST
Chain of UniProt Q9UKE5 (whole entry, looked up): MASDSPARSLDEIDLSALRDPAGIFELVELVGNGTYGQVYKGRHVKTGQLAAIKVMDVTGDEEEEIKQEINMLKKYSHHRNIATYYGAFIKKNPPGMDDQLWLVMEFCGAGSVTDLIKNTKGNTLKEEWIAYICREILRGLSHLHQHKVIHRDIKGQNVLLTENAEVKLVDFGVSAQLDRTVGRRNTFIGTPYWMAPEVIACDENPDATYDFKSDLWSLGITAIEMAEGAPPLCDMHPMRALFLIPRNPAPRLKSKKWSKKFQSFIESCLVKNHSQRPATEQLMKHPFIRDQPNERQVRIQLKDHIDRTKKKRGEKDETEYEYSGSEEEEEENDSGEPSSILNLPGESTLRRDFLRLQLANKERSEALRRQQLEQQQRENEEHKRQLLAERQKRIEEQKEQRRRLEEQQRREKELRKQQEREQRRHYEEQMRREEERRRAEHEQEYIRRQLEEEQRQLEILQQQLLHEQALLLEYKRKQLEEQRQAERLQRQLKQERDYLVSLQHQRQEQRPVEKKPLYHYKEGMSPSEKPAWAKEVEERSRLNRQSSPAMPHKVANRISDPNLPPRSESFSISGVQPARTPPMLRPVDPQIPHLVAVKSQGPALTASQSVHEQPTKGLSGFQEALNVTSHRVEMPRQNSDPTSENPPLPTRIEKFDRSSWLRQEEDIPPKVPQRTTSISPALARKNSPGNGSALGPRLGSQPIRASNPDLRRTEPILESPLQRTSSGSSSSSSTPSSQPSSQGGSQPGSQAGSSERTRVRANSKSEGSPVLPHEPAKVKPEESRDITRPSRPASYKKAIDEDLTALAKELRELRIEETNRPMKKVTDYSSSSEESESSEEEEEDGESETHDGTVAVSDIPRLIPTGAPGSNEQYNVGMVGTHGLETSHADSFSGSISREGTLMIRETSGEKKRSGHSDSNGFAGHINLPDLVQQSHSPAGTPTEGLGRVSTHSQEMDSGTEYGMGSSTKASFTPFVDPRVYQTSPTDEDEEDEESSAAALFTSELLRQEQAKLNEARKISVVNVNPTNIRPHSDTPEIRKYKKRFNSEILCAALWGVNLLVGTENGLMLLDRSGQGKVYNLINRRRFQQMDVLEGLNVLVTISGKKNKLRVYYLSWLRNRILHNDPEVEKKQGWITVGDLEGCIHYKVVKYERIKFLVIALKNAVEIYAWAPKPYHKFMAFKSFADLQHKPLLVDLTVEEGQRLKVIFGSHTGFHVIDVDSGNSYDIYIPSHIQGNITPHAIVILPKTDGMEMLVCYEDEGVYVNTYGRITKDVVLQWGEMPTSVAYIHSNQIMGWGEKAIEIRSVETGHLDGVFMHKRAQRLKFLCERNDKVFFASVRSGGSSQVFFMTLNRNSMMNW
Chain of UniProt P30530 (whole entry, looked up): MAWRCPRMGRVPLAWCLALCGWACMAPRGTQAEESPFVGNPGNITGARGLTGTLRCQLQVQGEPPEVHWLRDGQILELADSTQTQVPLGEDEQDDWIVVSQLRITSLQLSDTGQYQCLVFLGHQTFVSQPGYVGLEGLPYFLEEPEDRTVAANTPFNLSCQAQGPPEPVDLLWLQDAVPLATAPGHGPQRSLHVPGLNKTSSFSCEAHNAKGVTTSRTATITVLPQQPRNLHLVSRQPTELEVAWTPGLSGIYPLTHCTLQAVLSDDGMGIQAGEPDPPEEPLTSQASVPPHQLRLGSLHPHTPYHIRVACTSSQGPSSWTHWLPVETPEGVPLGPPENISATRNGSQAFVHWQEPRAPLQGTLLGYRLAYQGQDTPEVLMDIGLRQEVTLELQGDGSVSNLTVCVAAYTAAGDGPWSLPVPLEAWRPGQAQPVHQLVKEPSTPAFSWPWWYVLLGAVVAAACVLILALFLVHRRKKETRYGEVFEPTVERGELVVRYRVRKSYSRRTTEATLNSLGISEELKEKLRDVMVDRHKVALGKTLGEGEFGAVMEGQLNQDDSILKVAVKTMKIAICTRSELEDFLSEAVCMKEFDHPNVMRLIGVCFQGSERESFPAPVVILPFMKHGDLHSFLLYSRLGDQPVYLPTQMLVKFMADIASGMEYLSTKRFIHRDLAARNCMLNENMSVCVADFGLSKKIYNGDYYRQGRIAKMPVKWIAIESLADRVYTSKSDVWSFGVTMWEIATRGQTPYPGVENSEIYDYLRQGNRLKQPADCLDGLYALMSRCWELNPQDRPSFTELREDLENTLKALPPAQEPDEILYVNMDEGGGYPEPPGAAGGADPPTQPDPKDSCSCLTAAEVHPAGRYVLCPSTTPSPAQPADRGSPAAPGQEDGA
Chain of UniProt P33913 (whole entry, unmodified, looked up): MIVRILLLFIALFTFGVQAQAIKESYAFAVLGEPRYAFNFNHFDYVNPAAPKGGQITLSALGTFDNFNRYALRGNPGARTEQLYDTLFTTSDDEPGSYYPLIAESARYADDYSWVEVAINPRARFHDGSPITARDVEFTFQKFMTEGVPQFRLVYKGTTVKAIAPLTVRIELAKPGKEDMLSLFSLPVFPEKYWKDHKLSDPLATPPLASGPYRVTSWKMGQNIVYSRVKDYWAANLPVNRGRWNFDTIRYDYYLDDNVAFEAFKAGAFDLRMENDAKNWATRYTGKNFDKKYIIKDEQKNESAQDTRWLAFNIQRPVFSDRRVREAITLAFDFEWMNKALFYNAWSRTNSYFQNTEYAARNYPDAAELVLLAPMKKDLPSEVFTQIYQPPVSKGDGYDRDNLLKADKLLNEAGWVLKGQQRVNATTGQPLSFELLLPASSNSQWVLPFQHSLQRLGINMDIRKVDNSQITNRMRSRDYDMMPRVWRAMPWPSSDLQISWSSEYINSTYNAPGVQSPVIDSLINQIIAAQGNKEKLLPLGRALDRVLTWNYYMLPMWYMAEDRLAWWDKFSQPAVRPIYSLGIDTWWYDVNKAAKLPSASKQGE

| Compound | target or system | assay | system | setting | scale | measurement | result |
| --- | --- | --- | --- | --- | --- | --- | --- |
| O=C(N[C@@H]1c2ccccc2C[C@H]1N1CCCC1)c1ccc(-c2ccnc3[nH]ccc23)nc1 | cGMP-dependent protein kinase 1 (PRKG1, Homo sapiens, UniProt Q13976) | binding, competition with immobilised ligand |  |  |  | Kd | 160 nM |
| COc1ccccc1-c1n[nH]c2nc(NC3CCN(C(=O)Cc4ccc(F)cc4F)CC3)ncc12 |  | bead binding, competition bead pull-down, item: LMJF.32.3310 | Leishmania donovani axenic amastigote extract | 10 µM | reference: vehicle | relative abundance | 0.85 |
| CS(C)(=O)=Nc1ccc(-c2ccc(-c3nc4cc(O[C@@H]5CO[C@H]6[C@@H]5OC[C@H]6O)[nH]c4cc3F)cc2)cc1 | Tyrosine-protein kinase receptor UFO (AXL, Homo sapiens, UniProt P30530) | enzyme activity, inhibitor |  | 10 µM |  | inhibition | -3% |
| c1ccc2c(c1)nc(CNCC13CC4CC(CC(C4)C1)C3)n2CCOC1CCCCC1 | Penicillin-binding protein 2X (Streptococcus pneumoniae R6, UniProt P59676) | binding, MST |  |  |  | Kd | 180000 nM |
| CCCc1cc2cc(-n3nc(C(F)F)c4c3CC(C)(C)CC4=O)cc(N3CCC(O)CC3)c2c(=O)[nH]1 | Heat shock protein HSP 90-beta (HSP90AB1, Homo sapiens, UniProt P08238) | fluorescence polarization |  | 24 h, 4 °C, with: FITC-geldanamycin tracer |  | Kd | 118 nM |
| CSCC[C@H](NC=O)C(=O)N[C@@H](CCCNC(=N)N)C(=O)N[C@H](C(=O)NCC(=O)N[C@@H](CC(N)=O)C(=O)N[C@@H](C)C(=O)N[C@@H](CC(N)=O)C(=O)NCC(=O)NCC(=O)N[C@@H](CCCCNC(=S)Nc1ccc2c(c1)C(=O)OC21c2ccc(O)cc2Oc2cc(O)ccc21)C(=O)O)[C@@H](C)O | Uncharacterized protein YejA (yejA, Escherichia coli, UniProt P33913, T471A) | binding, fluorescence polarisation |  | YejA variant T453A |  | Kd | 4780 ± 330 nM |
| O=C(CF)N[C@H]1[C@H]([C@H](O)[C@H](O)CNC(=O)c2ccc(Oc3ccccc3)cc2)O[C@@](OCc2cccc(Cl)c2Cl)(C(=O)O)C[C@@H]1O | B-cell receptor CD22 (CD22, Homo sapiens, UniProt P20273) | binding, ITC |  |  |  | Kd | 320 nM |
| CC[C@@H](C)[C@@H](NC(=O)[C@@H](CCC(N)=O)NC(=O)[C@H](NC(=O)[C@H]1CCCN1C(=O)[C@H](NC(=O)[C@@H](CO)NC(=O)[C@@H](Cc1ccccc1)NC(=O)[C@H]1CCCN1C(=O)[C@@H](CCC(N)=O)NC(=O)[C@H](N)CCSC)[C@H](C)CC)C(C)C)C(=O)N[C@@H](C(=O)N[C@H](CC(C)C)C(=O)N[C@H](CCC(N)=O)C(=O)NCC(=O)N[C@H](CO)C(=O)N[C@H](CCCNC(=N)N)C(=O)N[C@H](CCCNC(=N)N)C(=O)N[C@H](CCCNC(=N)N)C(=O)N[C@H](CCC(N)=O)C(=O)NCC(=O)N[C@H](CCCNC(=N)N)C(N)=O)[C@H](C)O | Kcnma1 (Mus musculus, UniProt Q08460) | BK current, blocker, inside-out patch | Xenopus oocytes | pH 7.0, 22 °C, 0 mV, with: 40 µM peptide |  | Kd | 16700 nM |
| CC[C@H](C)[C@H](NC(=O)[C@H](Cc1ccccc1)NC(=O)[C@H](CCC(=O)O)NC(=O)[C@H](CC(=O)O)NC(=O)[C@H](CC(=O)O)NC(=O)[C@H](CC(=O)O)NC(=O)[C@H](CC(=O)O)NC(=O)[C@H](CC(=O)O)NC(=O)[C@H](C)NC(=O)[C@H](C)NC(=O)[C@H](CC(=O)O)NC(=O)[C@H](CCC(=O)O)NC(=O)[C@@H](N)CC(=O)O)C(=O)N[C@@H](Cc1ccc(O)cc1)C(=O)N1CCC[C@H]1C(=O)N[C@@H](CC(N)=O)C(=O)N[C@@H](CO)C(=O)N[C@@H](Cc1ccc(O)cc1)C(=O)O | RNA-binding protein RRM4 (RRM4, Mycosarcoma maydis, UniProt A0A0D1DWZ5) | binding, isothermal titration calorimetry | Ustilago maydis | pH 8.0, 25 °C, with: MLLE domain 100 µM |  | Kd | 5700 nM |
| CN(C)[C@H]1C[C@@]23CC[C@@]4(O2)C(=CC[C@]2(C)[C@@H](c5ccc6ccncc6c5)CC[C@H]24)C=C3[C@@H](O)[C@@H]1O | Glycogen synthase kinase-3 beta (GSK3B, Homo sapiens, UniProt P49841) | ATP probe labelling, inhibitor, KiNativ profiling |  | 0.1 µM |  | inhibition | 8.3% |
| C=C1NC(=O)CNC(=O)[C@H](CC(N)=O)NC(=O)[C@H](CC(C)C)NC(=O)CNC(=O)[C@H](CCCCN)NC(=O)[C@H](C)NC(=O)[C@H]([C@@H](C)CC)NC(=O)[C@H](CO)NC(=O)[C@H](Cc2c[nH]c3ccccc23)NC(=O)[C@H](C)NC(=O)[C@H](Cc2c[nH]c3ccccc23)NC(=O)c2ccc(-c3nc(C(=O)OC)cs3)nc2-c2csc1n2 | TRAF2 and NCK-interacting protein kinase (TNIK, Homo sapiens, UniProt Q9UKE5) | SPR |  | with: ATP 1 mM |  | Kd | 6.3 ± 0.1 nM |
| O=C1NC2(CC2)COc2ncc(F)cc2[C@H]2COCCN2c2ccn3ncc1c3n2 |  |  | Sprague-Dawley rat, female, serum | oral, 20 mg/kg/day, 4 weeks daily, end of treatment |  | pancreatic amylase activity | 1120 ± 369 U/L |
| CC(C)(C)C(=O)OCOP(=O)(OCOC(=O)C(C)(C)C)C1CCCN(O)C1=O (stereo not drawn) | SF-539 |  |  |  |  | GI50 | 1520 nM |
| CC[C@H](C)[C@@H]1NC(=O)[C@@H](Cc2ccccc2)NC(=O)[C@@H](Cc2ccccc2)NC(=O)[C@@H](C)NC(=O)[C@H](CCC(=O)N[C@@H](CCCCN)C(N)=O)NC(=O)[C@@H](C)NC(=O)[C@@H](C)NC(=O)[C@@H](C)NC(=O)[C@H](Cc2c[nH]c3ccccc23)NC(=O)[C@H](CCCNC(=N)N)NC1=O | Lysine--tRNA ligase (KARS1, Homo sapiens, UniProt Q15046) | binding |  |  |  | Kd | 1500 nM |
| CC[C@H](C)[C@H](NC(=O)[C@H](C)NC(=O)CNC(=O)[C@@H](NC(=O)[C@@H](NC(=O)[C@H](CO)NC(=O)[C@H](CO)NC(=O)[C@@H](NC(=O)[C@H](CC(N)=O)NC(=O)[C@@H]1CCCN1C(=O)[C@H](Cc1c[nH]cn1)NC(=O)[C@H](Cc1c[nH]c2ccccc12)NC(=O)[C@@H](NC(=O)[C@H](CCCCN)NC(=O)[C@@H](NC(=O)[C@@H](NC(=O)[C@H](Cc1ccccc1)NC(=O)[C@H](CCCNC(=N)N)NC(=O)[C@@H](N)C(C)C)[C@@H](C)CC)[C@@H](C)O)[C@@H](C)CC)[C@@H](C)CC)C(C)C)[C@@H](C)O)C(=O)N[C@@H](CS)C(=O)N[C@@H](CC(C)C)C(=O)N[C@@H](CC(=O)O)C(=O)N[C@H](C(=O)N[C@@H](CC(C)C)C(=O)N[C@@H](CCCCN)C(=O)O)[C@@H](C)CC | Diablo IAP-binding mitochondrial protein (DIABLO, Homo sapiens, UniProt Q9NR28) | binding, microscale thermophoresis |  | 30 min, pH 7.4, 37 °C |  | Kd | 750 ± 50 nM |

For quick reference, copied from above:
| Compound | target or system | assay | system | setting | scale | measurement | result |
| --- | --- | --- | --- | --- | --- | --- | --- |
| O=C(CF)N[C@H]1[C@H]([C@H](O)[C@H](O)CNC(=O)c2ccc(Oc3ccccc3)cc2)O[C@@](OCc2cccc(Cl)c2Cl)(C(=O)O)C[C@@H]1O | B-cell receptor CD22 (CD22, Homo sapiens, UniProt P20273) | binding, ITC |  |  |  | Kd | 320 nM |
